Measured values from different studies.
Compare with care: the assays were run in different laboratories. “And” joins repeats or separate records; there may be more than shown. Numbers after ± are the reported error.
Chain of UniProt P09960 (whole entry, looked up): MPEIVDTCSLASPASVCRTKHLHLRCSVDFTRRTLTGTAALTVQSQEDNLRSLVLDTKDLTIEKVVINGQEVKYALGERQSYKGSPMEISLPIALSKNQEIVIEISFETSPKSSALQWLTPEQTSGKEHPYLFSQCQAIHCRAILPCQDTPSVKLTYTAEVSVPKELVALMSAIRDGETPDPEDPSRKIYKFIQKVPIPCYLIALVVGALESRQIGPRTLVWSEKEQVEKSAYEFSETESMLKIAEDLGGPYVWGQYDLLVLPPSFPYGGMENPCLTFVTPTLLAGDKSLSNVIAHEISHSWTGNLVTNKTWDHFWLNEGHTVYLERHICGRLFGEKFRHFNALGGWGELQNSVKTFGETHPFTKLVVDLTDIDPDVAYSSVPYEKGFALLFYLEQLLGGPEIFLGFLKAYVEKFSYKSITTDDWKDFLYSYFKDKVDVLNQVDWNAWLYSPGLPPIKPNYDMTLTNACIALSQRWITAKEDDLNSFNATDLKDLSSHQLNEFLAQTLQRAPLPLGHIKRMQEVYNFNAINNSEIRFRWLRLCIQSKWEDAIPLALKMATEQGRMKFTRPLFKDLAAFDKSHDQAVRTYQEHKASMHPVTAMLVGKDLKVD
Chain of UniProt Q86UE8 (whole entry, looked up): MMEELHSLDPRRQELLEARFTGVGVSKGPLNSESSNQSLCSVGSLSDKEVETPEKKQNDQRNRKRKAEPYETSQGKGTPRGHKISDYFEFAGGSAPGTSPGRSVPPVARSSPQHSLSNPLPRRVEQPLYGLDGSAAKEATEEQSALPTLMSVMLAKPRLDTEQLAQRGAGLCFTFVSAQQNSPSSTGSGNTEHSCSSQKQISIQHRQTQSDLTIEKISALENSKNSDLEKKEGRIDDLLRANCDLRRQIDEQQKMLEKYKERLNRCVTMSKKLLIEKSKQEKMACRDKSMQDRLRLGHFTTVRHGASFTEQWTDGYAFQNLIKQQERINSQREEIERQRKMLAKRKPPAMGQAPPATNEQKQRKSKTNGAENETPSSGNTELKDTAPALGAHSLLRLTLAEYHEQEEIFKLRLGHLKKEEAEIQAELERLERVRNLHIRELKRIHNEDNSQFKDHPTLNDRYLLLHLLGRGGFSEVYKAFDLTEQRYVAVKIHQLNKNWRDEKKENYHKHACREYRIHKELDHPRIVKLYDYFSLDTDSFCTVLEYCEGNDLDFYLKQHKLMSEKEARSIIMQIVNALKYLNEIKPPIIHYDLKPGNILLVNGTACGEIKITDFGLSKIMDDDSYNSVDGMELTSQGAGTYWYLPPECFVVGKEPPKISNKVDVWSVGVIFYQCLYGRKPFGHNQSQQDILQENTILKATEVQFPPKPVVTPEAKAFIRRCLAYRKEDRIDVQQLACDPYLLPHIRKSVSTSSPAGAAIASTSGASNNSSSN

With `COc1ccc([C@@H](O)c2cc(-c3ncnc4cc(N5CCOCC5)ccc34)c(F)cc2Cl)nn1` the stomatitis incidence was 4% (patients, advanced solid tumours; oral, 300 mg twice daily, treatment-emergent, with: avelumab).
`C[C@@H]1OC(=O)NN=C1c1ccc(-c2ccc(F)cc2)c(C(F)(F)F)c1`: “patients with adverse event” 0% (phase I trial, refers to: AST increased worst grade 1; human patients; 10 mg loading then 0.5 mg daily).
For `C=CCNc1c(O)cc2c(O)c1C[C@@H](C)C[C@H](OC)[C@H](O)[C@@H](C)/C=C(\C)[C@H](OC(N)=O)[C@@H](OC)/C=C\C=C(/C)C(=O)N2`, “patients with lipase increase” read 0% (unresectable or metastatic sarcoma; intravenous, 225 mg/m^2, grade 3-4 lab change).
With `CCCC(CCC)NC(=O)c1ccc2c(c1)OCO2` the micronucleated PCEs was 0.1% (Swiss albino CD-1 mice, male, bone marrow; intraperitoneal, 350 mg/kg, 36 h).
`Cl.Cn1c(=O)n(CCCCN2CCC3(CC2)OCc2ccccc23)c2ccccc21` has a brain-to-plasma ratio of 0.8 to 1.25 (dose-normalized AUC ratio; Sprague-Dawley rat, male; intravenous, 10 mg/kg).
`O=S(=O)(Nc1ccccc1)c1ccc(NC(=S)Nc2ccccc2)cc1`: “serum enzyme activity” 921 U/L (refers to: CK; male mouse, blood; oral, 20 mg/kg daily, 14 days).
The maximum response of `Cc1ncccc1-c1nc2cc(C(=O)NCCCc3ccccc3)ccc2o1` is reported as -8.09% (Vero-E6; CellTiter-Glo ATP; 72 h, retest 8-point duplicates; relative to: DMSO 0%, hyamine -100%, more negative, more toxic).
Under “faecal excreted amount”, `COc1ccc([C@@H]2CC(=O)c3c(O)cc(O)cc3O2)cc1O` is recorded as 14500 ± 4630 ng (male Sprague-Dawley rat, obese; oral, 100 mg/kg of neohesperidin, 12 to 24 h).
`O=c1ccc2ncc(=O)n3c2n1C[C@H]3CN1CCC(NCc2cc3c(cn2)OCCC3)CC1`: “adverse event incidence” 0% (refers to: skin subcutaneous tissue disorders; healthy human participants; oral, 1500 mg, with: rifampicin 600 mg).
`CC[C@H](C)[C@H](NC(=O)[C@H](Cc1ccccc1)NC(=O)[C@H](CCC(=O)O)NC(=O)[C@H](CCCNC(=N)N)NC(=O)[C@H](C)NC(=O)[C@H](C)NC(=O)[C@H](CCC(N)=O)NC(=O)[C@H](CCC(=O)O)NC(=O)[C@H](CCC(=O)O)NC(=O)[C@H](CC(C)C)NC(=O)[C@H](Cc1ccc(O)cc1)NC(=O)[C@H](CO)NC(=O)[C@H](CO)NC(=O)[C@@H](NC(=O)[C@H](CC(=O)O)NC(=O)[C@H](CO)NC(=O)[C@@H](NC(=O)[C@H](Cc1ccccc1)NC(=O)[C@@H](NC(=O)CNC(=O)[C@H](CCC(=O)O)NC(=O)[C@H](C)NC(=O)CCc1cnc[nH]1)[C@@H](C)O)[C@@H](C)O)C(C)C)C(=O)N[C@@H](C)C(=O)N[C@@H](Cc1c[nH]c2ccccc12)C(=O)N[C@@H](CC(C)C)C(=O)N[C@H](C(=O)N[C@@H](CCCNC(=N)N)C(=O)NCC(=O)N[C@@H](CCCNC(=N)N)C(=O)N[C@@H](CCCCNC(=O)COCCOCCNC(=O)COCCOCCNC(=O)CC[C@H](NC(=O)CCCCCCCCCCCCCCCCC(=O)O)C(=O)O)C(=O)NCC(=O)NCC(=O)N[C@@H](CO)C(=O)N[C@@H](CCSC)C(=O)N[C@H](C(=O)N[C@@H](CCCCNc1c(NCCCCCN(O)C(=O)CCC(=O)NCCCCCN(O)C(=O)CCC(=O)NCCCCCN(O)C(C)=O)c(=O)c1=O)C(=O)O)C(C)C)C(C)C` [zirconium-89 labelled] has a tissue uptake of 0.062 %ID/g and 0.068 %ID/g and 0.082 %ID/g (ex vivo gamma counting; male Sprague-Dawley rats, intestine; intravenous, 5 MBq (1 nmol), 72 h).
`N[C@@H]1c2ccccc2OC12CCN(c1cnc3c(N4CCCc5ncccc54)n[nH]c3n1)CC2` — result for “incidence of any TEAE”: 100% (patients advanced metastatic solid tumours; oral, dose not given, dose escalation total).
`O=C(Nc1ccccc1)C1CCN(C(=O)Oc2cccnc2)CC1`: “subjects with cardiac disorders” 14.3% (adverse event reporting; healthy women; oral, 20 mg, 7 days).
`COc1cccc(Oc2ccccc2NC(=O)CNC(=O)c2cccc3ccccc23)c1`: “bicarbonate (total CO2)” 20 mmol/L and 19 mmol/L (esterase-deficient SCID mice, male; oral, 15 mg/kg/day, 14 days, toxicity study).
`Clc1nc[n]([Au][PH](c2ccccc2)(c2ccccc2)c2ccccc2)c1Cl` has a body weight of 22.2 g and 23.1 g (NCG mice; intraperitoneal, 5 mg/kg single dose, 24 h).
`CC1(C)[C@H](C=C(Cl)Cl)[C@H]1C(=O)OCc1cccc(Oc2ccccc2)c1`: “enzyme contribution to clearance” 0.04% (refers to: CYP2B6; human, age 6 months, recombinant human CYP2B6; 0.1 µM).
For `O=C(O)CCCOc1ccc(F)cc1-c1cc(-c2ccccc2C(F)(F)F)n(-c2ccccc2)n1`, the organ weight was 3.2 ± 0.56 g (male Crl:CD(SD) rats, testes; intravenous, 25 µg/kg, 14 d).
`CCC[C@@](N)(CO)CCc1ccc(OCCCCCC(C)C)cc1` has a Cmax of 202 nM (dog, male hounds, plasma; oral capsule, 10 mg/kg, geometric mean).
`Cn1c(-c2ccc(C(N)=O)cc2F)nnc1C(C)(C)Oc1c(F)cc(Cl)cc1F` — result for “subjects with gastrointestinal TEAE”: 5.6% (human; oral, dose not given, single ascending dose all doses).
`COc1ncccc1-c1cnn2ccc(N3CCN(C(=O)OC(C)C)CC3)nc12`: “free drug concentration” 140 nM (mouse, SNL model, plasma; oral, 30 mg/kg, 120 min).
For `CCc1cc2c(cc1CC)CC(NC[C@H](O)c1ccc(O)c3[nH]c(=O)ccc13)C2`, “lung deposited fraction” read 0.15 (human; inhaled).
The Myalgia incidence of `CCN1[C@@H](C(=O)NC23CCC(C(=O)O)(CC2)CC3)[C@H](c2cccc(Cl)c2F)[C@]2(C(=O)Nc3cc(Cl)ccc32)C12CCCCC2` is reported as 4.8% (patients with advanced solid tumours; oral, dose not given, all doses).
For `O=[N+]([O-])c1ccc2c(c1)S(=O)(=O)C=C2`, “mean corpuscular volume” read 52.8 fL (male C57BL/6 mice, blood; intraperitoneal, 10 mg/kg, day 8, group average).
`O=C1Nc2cc3[nH]nc(-c4ccncc4)c3cc2CN1Cc1ccccc1` — result for “patients with diarrhoea”: 22% (CTCAE v4.03; advanced solid tumour patients; intravenous, 9.6 mg/kg, schedules 1/2).
For `CN1CC[C@@H](c2c(O)cc(O)c3c(=O)cc(-c4ccc(C(F)(F)F)cc4Cl)oc23)[C@@H]1CO`, “patients with adverse event” read 10% (refers to: Hypertension; relapsed or refractory haematological malignancies; oral, dose not given, all arms).
`c1csc(CNc2cc[nH]n2)c1`: “micronucleated PCE per 1000 PCE” 0.4 (micronucleus; CD-1 mouse Hsd:ICR(CD-1), female, bone marrow; oral, 250 mg/kg/day, 3 days).
`CC(=O)c1c(C)c2cnc(Nc3ccc(C4CCN(CCS(C)(=O)=O)CC4)cn3)nc2n(C2CCCC2)c1=O` — result for “patients with serious AE”: 0% (HR+/HER2- advanced breast cancer patients; oral, 25 mg).
`CCN1CC2(CCN(CCc3cc(F)ccc3F)CC2)O[C@H](C)C1=O` has a tmax of 18 min (ferret, plasma; intraperitoneal, 0.5 mg/kg).
`CC(C)[C@@H]1NC(=O)CNC(=O)[C@H](CC(N)=O)NC(=O)[C@H](CCCNC(=N)N)NC(=O)[C@H](Cc2ccc(O)cc2)NC(=O)[C@H](C(C)C)NC(=O)[C@@H](NC(=O)[C@@H](NC(=O)[C@H](CC(N)=O)NC(=O)[C@H](Cc2c[nH]c3ccccc23)NC(=O)[C@H](C)NC(=O)[C@H](Cc2ccccc2)NC(=O)CN)C(C)C)CSSC[C@@H](C(=O)N[C@@H](Cc2cnc[nH]2)C(=O)N[C@@H](CCCNC(=N)N)C(=O)N[C@@H](CCCNC(=N)N)C(=O)N[C@@H](C)C(=O)N[C@@H](CC(N)=O)C(N)=O)NC(=O)[C@H](C(C)C)NC(=O)[C@H](CCCNC(=N)N)NC1=O` — result for “mean platelet volume”: 6.33 ± 0.27 fL (ICR mice, blood; intraperitoneal, 10 mg/kg, day 5).
`O=C(NCCN1CCCCC1)c1ccc(-c2ccc(N3CCSCC3)nc2)cc1` has a maximum response of -5.88% (Vero-E6; CellTiter-Glo ATP; 72 h, retest 8-point duplicates; relative to: DMSO 0%, hyamine -100%, more negative, more toxic).
The recovery of `N#C/N=C1\SCCN1Cc1ccc(Cl)nc1` is reported as 4.54% (soil; 28 days, nominal 1.1).
For `COc1ccc(-c2c(-c3ccc(C#N)c(F)c3)nc(N3CCC(N)CC3)n(C)c2=O)cc1F`, “treatment-related adverse event incidence” read 4% (refers to: Pruritus; human patients; oral, dose not given, any grade, dose escalation, NG).
Under “related decreased WBC”, `C[C@@H](NC(=O)N1C(=O)[C@H](Cc2ccnc(N)c2)[C@H]1C(=O)O)C1CCCCC1` is recorded as 0% (healthy Chinese adults; continuous intravenous infusion, 1.5 mg/kg/h, 5.0 days).
Under “CL as % of hepatic blood flow”, `N=c1c2c(-c3ccccc3)c(-c3ccccc3)n(Cc3ccccc3)c2ncn1[C@H]1CC[C@H](O)CC1` is recorded as less than 5% (cynomolgus monkey, male, plasma; intravenous, 0.5 mg/kg).
`C[C@H]1CN(c2n[nH]c3nc(N[C@H]4CC[C@H](NS(=O)(=O)CCC(F)(F)F)CC4)ncc23)CCO1` has a relative abundance of 1.09 (Serine/threonine-protein kinase tousled-like 2 (TLK2, Homo sapiens, UniProt Q86UE8); inhibitor, Kinobeads competition profiling; 0.032 µM; relative to: vehicle).
`CC(C)C[C@H](NC(=O)[C@H](CCCCN)NC(=O)OCC1c2ccccc2-c2ccccc21)C(=O)N[C@H](C(=O)N[C@@H](Cc1ccccc1)C(=O)N[C@@H](Cc1ccccc1)C(=O)N[C@@H](CCCCN)C(=O)NCC(=O)N[C@@H](Cc1ccccc1)C(=O)N[C@@H](C)C(=O)N[C@@H](Cc1c[nH]c2ccccc12)C(=O)N[C@@H](CC(N)=O)C(=O)N[C@H](C(=O)N[C@H]1CSSC[C@@H](C(=O)N[C@@H](Cc2c[nH]cn2)C(=O)N[C@@H](CCCNC(=N)N)C(=O)N[C@@H](CCCNC(=N)N)C(=O)N[C@@H](C)C(=O)N[C@@H](CC(N)=O)C(N)=O)NC(=O)[C@H](C(C)C)NC(=O)[C@H](CCCNC(=N)N)NC(=O)[C@H](C(C)C)NC(=O)CNC(=O)[C@H](CC(N)=O)NC(=O)[C@H](CCCNC(=N)N)NC(=O)[C@H](Cc2ccc(O)cc2)NC(=O)[C@H](C(C)C)NC1=O)C(C)C)C(C)C`: “secondary structure content” 17.5% (circular dichroism, refers to: β-Turn; PBS; 80 µM, pH 7.4, with: LTA 1 µM).
For `COc1cc(Nc2ncc(F)c(Nc3ccc4c(n3)NC(=O)C(C)(C)O4)n2)cc(OC)c1OC`, the IC50 was greater than 10 µM (Leukotriene A-4 hydrolase (LTA4H, Homo sapiens, UniProt P09960)).
Under “incidence of tooth infection”, `Cc1cc(C)c(CNC(=O)c2cc(Cl)c3c(c2C)O[C@@](C)([C@H]2CC[C@H](N(C)C)CC2)O3)c(=O)[nH]1` is recorded as 0% (relapsed/refractory NHL patients; dose not given, trial, safety set, treatment-related TEAE grade 5).
`CO[C@H]1C[C@@H]2CC[C@@H](C)[C@@](O)(O2)C(=O)C(=O)N2CCCC[C@H]2C(=O)O[C@H]([C@H](C)C[C@@H]2CC[C@@H](OC(=O)NCCOCCOCCOCCOCCOCCOCCOCCOCCC(=O)N3CCc4cc(Cn5nc(-c6ccc7oc(N)nc7c6)c6c(N)ncnc65)ccc4C3)[C@H](OC)C2)C[C@@H](O)[C@H](C)/C=C(\C)[C@@H](O)[C@@H](OC)C(=O)[C@H](C)C[C@H](C)/C=C/C=C/C=C/1C` — result for “incidence of Fatigue TRAE”: 3.5% (patients with advanced solid tumours; intravenous, dose not given, grade ≥3).
Under “adverse events causing interruption”, `CC(C)n1c(C2CCNCC2)nc2c([N+](=O)[O-])c(Br)c(Br)cc21` is recorded as 2% (refers to: Fasciitis; AML patients; 125 mg).
`C[C@]1(CO)Cc2ncn(-c3ccc(C#N)c(Cl)c3)c2C(=O)O1` has a Tmax of 60 min (healthy Japanese adults, plasma; 40 mg once daily, after first dose, multiple dose).
`CC(C)N(CCc1c[nH]c2cccc(OC(=O)CCCC(=O)O)c12)C(C)C.Cl` has an AUC(0-inf) of 568 ng·h/mL (male beagle dog, plasma; intravenous, 1 mg/kg).
`COc1cc2c(Oc3ccc4[nH]c(C)cc4c3F)ccnc2cc1OCC1(N)CC1`: “incidence of adverse event” 26.5% (refers to: grade 1 or 2 hand-foot syndrome; paediatric high-risk refractory sarcoma; whole group).

Repeated from above:
`COc1ncccc1-c1cnn2ccc(N3CCN(C(=O)OC(C)C)CC3)nc12`: “free drug concentration” 140 nM (mouse, SNL model, plasma; oral, 30 mg/kg, 120 min).
For `CCc1cc2c(cc1CC)CC(NC[C@H](O)c1ccc(O)c3[nH]c(=O)ccc13)C2`, “lung deposited fraction” read 0.15 (human; inhaled).
The Myalgia incidence of `CCN1[C@@H](C(=O)NC23CCC(C(=O)O)(CC2)CC3)[C@H](c2cccc(Cl)c2F)[C@]2(C(=O)Nc3cc(Cl)ccc32)C12CCCCC2` is reported as 4.8% (patients with advanced solid tumours; oral, dose not given, all doses).
For `O=[N+]([O-])c1ccc2c(c1)S(=O)(=O)C=C2`, “mean corpuscular volume” read 52.8 fL (male C57BL/6 mice, blood; intraperitoneal, 10 mg/kg, day 8, group average).
`O=C1Nc2cc3[nH]nc(-c4ccncc4)c3cc2CN1Cc1ccccc1` — result for “patients with diarrhoea”: 22% (CTCAE v4.03; advanced solid tumour patients; intravenous, 9.6 mg/kg, schedules 1/2).
For `CN1CC[C@@H](c2c(O)cc(O)c3c(=O)cc(-c4ccc(C(F)(F)F)cc4Cl)oc23)[C@@H]1CO`, “patients with adverse event” read 10% (refers to: Hypertension; relapsed or refractory haematological malignancies; oral, dose not given, all arms).
`c1csc(CNc2cc[nH]n2)c1`: “micronucleated PCE per 1000 PCE” 0.4 (micronucleus; CD-1 mouse Hsd:ICR(CD-1), female, bone marrow; oral, 250 mg/kg/day, 3 days).
